Measured values of several laboratories.
Compare with care: the assays were run in different laboratories. ± marks the error that the study gave.
UniProt O15111, sequence (whole entry, looked up): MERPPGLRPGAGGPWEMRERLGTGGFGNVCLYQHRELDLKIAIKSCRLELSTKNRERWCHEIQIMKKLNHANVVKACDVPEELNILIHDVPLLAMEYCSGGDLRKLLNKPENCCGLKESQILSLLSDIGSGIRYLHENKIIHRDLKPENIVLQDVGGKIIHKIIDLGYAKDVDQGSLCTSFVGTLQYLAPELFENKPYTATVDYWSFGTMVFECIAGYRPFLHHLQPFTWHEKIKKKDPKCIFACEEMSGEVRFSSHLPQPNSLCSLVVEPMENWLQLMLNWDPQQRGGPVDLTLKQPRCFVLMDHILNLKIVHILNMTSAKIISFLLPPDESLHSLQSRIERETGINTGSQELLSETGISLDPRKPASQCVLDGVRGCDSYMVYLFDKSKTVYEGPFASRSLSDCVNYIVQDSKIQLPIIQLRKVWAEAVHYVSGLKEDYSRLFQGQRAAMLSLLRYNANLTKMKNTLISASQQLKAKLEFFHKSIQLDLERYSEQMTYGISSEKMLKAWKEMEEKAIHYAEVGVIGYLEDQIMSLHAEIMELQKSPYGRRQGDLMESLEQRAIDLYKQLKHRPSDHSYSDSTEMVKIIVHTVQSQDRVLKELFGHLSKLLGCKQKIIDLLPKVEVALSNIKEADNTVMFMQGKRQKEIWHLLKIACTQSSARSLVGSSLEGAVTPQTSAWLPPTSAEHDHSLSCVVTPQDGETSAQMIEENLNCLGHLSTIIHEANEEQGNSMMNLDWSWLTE

With CNC(=O)c1cc(OC)c(-c2cc(C(C)=O)n3ccccc23)cc1OC the IC50 was 2.84 µM (MV4-11; cell growth or viability, ATP luminescence).
For C=CC(=O)N1CCCC(n2c(=O)c3ncccc3n(Cc3ccc(Oc4ccccc4)cc3)c2=O)C1 (stereo not shown), the IC50 was 20 µM (KI-JK; cell proliferation, MTT; 72 h).
With COCCNC(=O)c1cccc(N2Cc3cnn(Cc4ccc(F)cc4)c3C2)c1 the IC50 was 1.06 µM (HEK293 expressing GluA1 and GluA2; glutamate excitotoxic cell death, CellTox Green; with: glutamate).
Under “log2 fold change”, COC1CN([C@H]2CC[C@H]([C@@]3(C)Oc4c(Cl)cc(C(=O)NCc5c(SC)cc(C)[nH]c5=O)c(C)c4O3)CC2)C1 is recorded as 3.48 (RNA-seq, refers to: SHB; human cancer patients, whole blood; dose not given, 24 h, PRC2 target gene; reference: pretreatment sample).
CN1CC[C@@H](COc2cnc(C#N)cc2-c2ccn3nc(NC(=O)C4CC4)cc3c2)C1 has an IC50 of 0.85 µM (wild-type mouse BMDC; TNF release; 4 h, with: LPS).
For COc1cc(-c2cc(C(C)=O)n3ccccc23)c(OC)cc1CN(C)C, the IC50 was 4.35 µM (MV4-11; cell growth or viability, ATP luminescence).
Fc1ccc(Cn2ncc3c2CN(c2ccccc2)C3)cc1 gave an IC50 of 0.932 µM (HEK293 expressing GluA1 and GluA2; glutamate excitotoxic cell death, CellTox Green; with: glutamate).
O=c1cc(-c2ccc(O)cc2)oc2cc(O)cc([O][Ga+][O]c3cc(O)cc4oc(-c5ccc(O)cc5)cc(=O)c34)c12 gave an IC50 of over 200 µM (LO2; cell viability, MTT).
CC(C)c1ccc(N(C)c2ccc3c(c2)OCC[C@H]3CNc2cnccc2C(=O)O)cc1 gave an IC50 of 0.011 µM (HCC70; cell growth or viability, ATP luminescence; 7 days).
The IC50 of CC(CCC(=O)OCc1cccc(CN(C(=O)OCc2ccc(B3OC(C)(C)C(C)(C)O3)cc2)[c-]2cccc2)c1)C1CCC2C3C(=O)CC4CC(=O)CCC4(C)C3CC(=O)C12C.[Fe+2].c1cc[cH-]c1 (stereo not shown) is reported as 5 µM (BL2; cell growth or viability, MTT; 48 h).
The IC50 of O=[C]=[Mn-2]12(=[C]=O)(=[C]=O)[O]c3cc4c(cc3=[N+]1CCc1ccccc1)[O][Mn-2](=[C]=O)(=[C]=O)(=[C]=O)([N+]=4CCc1ccccc1)[n+]1ccc(cc1)C(=O)Oc1ccccc1OC(=O)c1cc[n+]2cc1 is reported as 3.13 ± 0.41 µM (HCT-15; cell growth, MTT; 48 h, LED light photolysis 1 h).
For Cn1ncc(-c2ccc3c(=O)[nH]nc(CN)c3c2)c1-c1c(F)c(Cl)cc(OC2CC2)c1C#N, the IC50 was 1.61 µM (YCC2; cell viability; 120 h, relative IC50).
C=CC(=O)N1[C@@H](c2ccc3c(c2)OCO3)c2[nH]c3ccccc3c2C[C@H]1C(=O)N1CCN(C)CC1 has a relative co-enrichment of 80% (human cyclin E1 wild type-3xFLAG:CDK2; co-IP with TMT proteomics, refers to: HNRNPK; concentration not given, P61978; reference: wild type DMSO).
With CCCN1C(=O)CS/C1=N\N=C\c1cccc2cc3ccccc3nc12 the IC50 was over 50 µM (SK-BR-3; cell growth or viability, MTT; 48 h).
Under “log2 fold change”, CN1CCCNC(=O)c2cccc(c2)C(=O)NCCCN(C)CCCNc2cccc3c2C(=O)c2cccc(c2C3=O)NCCC1 is recorded as -0.735 (SAS; RNA-Seq, refers to: SMC6 mRNA; 1 µM, 6 h; reference: untreated cells).
Cc1ccc(C(C)C)cc1.Cc1ccc(C(C)C)cc1.Cc1ccc(C(C)C)cc1.Cc1ccc(C(C)C)cc1.O=S(=O)(O)C(F)(F)F.O=S(=O)(O)C(F)(F)F.O=S(=O)(O)C(F)(F)F.O=S(=O)(O)C(F)(F)F.c1ccc2c3c4ccccc4c(c2c1)-c1cn(nn1)-c1cc[n+](cc1)[Ru-]1[O]c2c4ccccc4c4c5c(c6ccccc6c(c25)=[O+]1)=[O+][Ru-]([O]4)[n+]1ccc(cc1)-n1cc(nn1)-c1c2ccccc2c(c2ccccc12)-c1cn(nn1)-c1cc[n+](cc1)[Ru-]1[O]c2c4ccccc4c4c5c(c6ccccc6c(c25)=[O+]1)=[O+][Ru-]([O]4)[n+]1ccc(cc1)-n1cc-3nn1 gave an IC50 of 5.4 µM (AGS; cell growth or viability, MTT; 24 h).
For COc1cc(-c2cc(C(C)=O)n3ccccc23)cc(OC)c1Cn1ccnc1, the IC50 was 0.72 µM (MV4-11; cell growth or viability, ATP luminescence).
With COc1cc(S(=O)(=O)Oc2ccc3[nH]c(C)cc3c2F)cc(OC)c1OC the IC50 was 0.0105 µM (SUIT-2; cell growth or viability, fluorescence; 72 h).
Cc1ncsc1-c1ccc(C(C)NC(=O)C2CC(O)CN2C(=O)C(NC(=O)CCCCCCCCCCN2CCCC(Nc3ncc(Cl)c(Nc4ccccc4S(=O)(=O)C(C)C)n3)C2)C(C)(C)C)cc1 (stereo not shown): “log2 fold change” -1.53 (22Rv1; RNA-seq, refers to: POLD3 mRNA; concentration not given; reference: DMSO).
For C=C(NC(=O)c1csc(-c2nc3c(cc2O)-c2nc(cs2)C(=O)NC(C(C)O)C(=O)NC(=C(C)OC)c2nc(cs2)C(=O)NC2c4nc(cs4)C(=O)NC(COC(=O)c4c5c6c(cccc6n4O)COC(=O)C(OC4CC(C)(O)C(N(C)C)C(C)O4)C2OC5)c2nc-3cs2)n1)C(N)=O (stereo not shown), the AUC(0-inf) was 21600 ng·h/mL (cynomolgus monkey, male, plasma; intravenous infusion, 3 mg/kg, multiple doses, day 7).
For Cc1cc2cc(C(=O)N(Cc3ccc(C(F)(F)F)cn3)[C@H](C)c3ncccn3)ccc2nc1N, the IC50 was 0.017 µM (DOHH-2; cell growth).
CCOC(=O)/C=C1\S/C(=N\N=C\c2cccc3cc4ccccc4nc23)N(c2ccc([N+](=O)[O-])cc2)C1=O gave an IC50 of over 50 µM (SK-BR-3; cell growth or viability, MTT; 48 h).
For CCNC(=S)N/N=C(\C)c1c(O)c2ccccc2oc1=O, the IC50 was over 100 µM (human Skin fibroblast; cell growth or viability, MTT; 48 h).
For O=C(NCCOCCOCCOCCNC(=O)c1cc2ccccc2c2ccccc12)c1cc(C(=O)N2CCNCCNCCNCC2)c(O)c(C(=O)N2CCNCCNCCNCC2)c1, the IC50 was over 1000 µM (2C6 normal pancreas; cell viability, MTT; 24 h).
For Nc1ncc(-c2cc(-c3cnn(CC(F)(F)F)c3)ncc2F)nc1C(=O)NC1CNCC(F)C1 (stereo not shown), the remaining binding was 53% (INSRR; KINOMEscan; 1 µM; reference: DMSO control).
CCOc1cncc(-c2ccc(NC(=O)C3(c4ccnc(NS(=O)(=O)C5CC5)n4)CCOCC3)nc2)n1 gave an IC50 of 0.197 µM (EFE-184; cell proliferation, CellTiter-Glo; 72 h).
Cc1nn(-c2cccc(N)c2)c(=O)c2cnc(Nc3ccc(N4CCNCC4)cc3)nc12 has an IC50 of over 10 µM (Inhibitor of nuclear factor kappa-B kinase subunit alpha (CHUK, Homo sapiens, UniProt O15111); enzyme activity, inhibitor).
For O=C1CS/C(=N\N=C\c2cccc3cc4ccccc4nc23)N1c1ccc([N+](=O)[O-])cc1, the IC50 was over 50 µM (SK-BR-3; cell growth or viability, MTT; 48 h).
For COC(=O)N1c2ccc3c(nc(Cc4ccccc4)n3[C@@H]3CCC[C@@H](C(=O)O)C3)c2CC[C@@H]1C, the IC50 was 1.79 µM (HCC70; cell growth or viability, ATP luminescence; 10 days).
NCCOc1cc(NC(=O)c2cc(Cl)cc(C(=O)Nc3cc(OCCN)c4ccccc4n3)n2)nc2ccccc12 has an IC50 of 1.8 µM (HT-1080; cell growth or viability, ATP luminescence; 72 h).
The IC50 of Fc1ccc(Cn2ncc3c2CN(c2nccc(N4CCC4)n2)C3)cc1 is reported as 4.6 µM (HEK293 expressing GluA1 and GluA2; glutamate excitotoxic cell death, CellTox Green; with: glutamate).
Under “percent of control”, C=CC(=O)Nc1cccc(Cn2ncc3cnc(Nc4cnn(CCOC)c4)nc32)c1 is recorded as 15% (ABL2 human; binding, KINOMEscan; 100 nM; lower = stronger binding).
CN(C)C(=O)c1cccc(N2Cc3cn(Cc4cc(F)cc(F)c4)nc3C2)c1 has an IC50 of 0.009 µM (HEK293 expressing GluA1 and GluA2; glutamate excitotoxic cell death, CellTox Green; with: glutamate).
For CNS(=O)(=O)Nc1nccc(Cc2c(C)c3ccc(Oc4ncccc4F)cc3oc2=O)c1F, the IC50 was over 1 µM (HCC95; cell viability; 7 days).
CCN(C(=O)c1cc(F)ccc1Oc1nncnc1N1CCC2(C1)CN(C(CCCN(C)CCOC)C(C)C)C2)C(C)C (stereo not shown) gave an IC50 of over 1 µM (MOLM-14 (KMT2A-AF9, FLT3-ITD); cell growth, live-cell imaging, spheroid-like; concentration not given, 8 days).
The IC50 of CCn1ccc(C2CCCN2S(=O)(=O)c2cc(C)c(C)cc2C)n1 (stereo not shown) is reported as over 100 µM (human PBMC monocytes; phagocytosis of anti-D RBCs).
The IC50 of CC(=O)NCCOCCOCCOCCNC(=O)c1cc(C(=O)N2CCNCCNCCNCC2)c(O)c(C(=O)N2CCNCCNCCNCC2)c1 is reported as over 1000 µM (2C6 normal pancreas; cell viability, MTT; 24 h).
With CN1CCN(C(=O)c2ccnc(N3Cc4cnn(Cc5ccc(F)cc5)c4C3)n2)CC1 the IC50 was 0.041 µM (HEK293 expressing GluA1 and GluA2; glutamate excitotoxic cell death, CellTox Green; with: glutamate).
With Cc1cnc(Nc2ccc3c(c2)CCN(C(=O)/C=C/C(=O)c2ccc(Cl)cc2)C3)nc1-c1cnn(C(C)C)c1 the IC50 was 0.36 µM (HCC70; cell growth or viability, MTT; 48 h).
The IC50 of Cc1ccc2c(c1)C(O)(CC(=O)c1ccc3c(c1)OCO3)C(=O)N2 (stereo not shown) is reported as 224 µM (Uncharacterized protein (Trypanosoma brucei brucei, UniProt Q386Q8); inhibitor, coupled colorimetric; Trypanosoma brucei).
CN(C)C(=O)c1cccc(N2Cc3cn(Cc4ccccc4F)nc3C2)c1 gave an IC50 of 0.039 µM (HEK293 expressing GluA1 and GluA2; glutamate excitotoxic cell death, CellTox Green; with: glutamate).
O=c1c(O)c(-c2ccc(O)c(O)c2)oc2cc(O)cc([O][Ga+][O]c3cc(O)cc4oc(-c5ccc(O)c(O)c5)c(O)c(=O)c34)c12 has an IC50 of over 200 µM (LO2; cell viability, MTT).
For CN(C(=O)c1ccnc(N2Cc3cn(Cc4ccc(F)cc4)nc3C2)n1)C1CCCCC1, the IC50 was 0.087 µM (HEK293 expressing GluA1 and GluA2; glutamate excitotoxic cell death, CellTox Green; with: glutamate).
For CN1CCC(N[C@@H]2CCc3[nH]c4c(C(N)=O)ccc(-c5ccccc5Cl)c4c3C2)CC1, the IC50 was 0.00014 µM (RKO; cell growth or viability).
CN(C)C(=O)c1cccc(N2Cc3cn(Cc4ccc(F)cc4)nc3C2)c1 has an IC50 of 0.0067 µM (HEK293 expressing GluA1 and GluA2; glutamate excitotoxic cell death, CellTox Green; with: glutamate).
With NC(=O)c1ccc(-c2ccccc2Cl)c2c3c([nH]c12)CCC(N)C3 (stereo not shown) the IC50 was 0.00442 µM (RKO; cell growth or viability; 96 h).

For quick reference, copied from above:
With COCCNC(=O)c1cccc(N2Cc3cnn(Cc4ccc(F)cc4)c3C2)c1 the IC50 was 1.06 µM (HEK293 expressing GluA1 and GluA2; glutamate excitotoxic cell death, CellTox Green; with: glutamate).
Under “log2 fold change”, COC1CN([C@H]2CC[C@H]([C@@]3(C)Oc4c(Cl)cc(C(=O)NCc5c(SC)cc(C)[nH]c5=O)c(C)c4O3)CC2)C1 is recorded as 3.48 (RNA-seq, refers to: SHB; human cancer patients, whole blood; dose not given, 24 h, PRC2 target gene; reference: pretreatment sample).
CN1CC[C@@H](COc2cnc(C#N)cc2-c2ccn3nc(NC(=O)C4CC4)cc3c2)C1 has an IC50 of 0.85 µM (wild-type mouse BMDC; TNF release; 4 h, with: LPS).
